# Measured values pooled from the literature.
# Compare with care: the assays were run in different laboratories. Numbers after ± are the reported error.
# GAP50: Glideosome-associated protein 50 (GAP50, Plasmodium falciparum, UniProt Q8I2X3)
# UniProt Q8I2X3, sequence (whole entry, looked up): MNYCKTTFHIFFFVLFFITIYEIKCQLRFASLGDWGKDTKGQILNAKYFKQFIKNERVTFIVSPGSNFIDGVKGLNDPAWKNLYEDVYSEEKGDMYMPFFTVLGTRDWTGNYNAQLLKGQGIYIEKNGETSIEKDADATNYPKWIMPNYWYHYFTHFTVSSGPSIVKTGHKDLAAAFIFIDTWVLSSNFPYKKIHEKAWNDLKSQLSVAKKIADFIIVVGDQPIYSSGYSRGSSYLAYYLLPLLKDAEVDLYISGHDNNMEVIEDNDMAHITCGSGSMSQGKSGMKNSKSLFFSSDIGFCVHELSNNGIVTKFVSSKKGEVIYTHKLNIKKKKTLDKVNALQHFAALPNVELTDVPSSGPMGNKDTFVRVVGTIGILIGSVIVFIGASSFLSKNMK
# CDK9: Cyclin-dependent kinase 9 (CDK9, Homo sapiens, UniProt P50750)
# UniProt P50750, sequence (whole entry, looked up): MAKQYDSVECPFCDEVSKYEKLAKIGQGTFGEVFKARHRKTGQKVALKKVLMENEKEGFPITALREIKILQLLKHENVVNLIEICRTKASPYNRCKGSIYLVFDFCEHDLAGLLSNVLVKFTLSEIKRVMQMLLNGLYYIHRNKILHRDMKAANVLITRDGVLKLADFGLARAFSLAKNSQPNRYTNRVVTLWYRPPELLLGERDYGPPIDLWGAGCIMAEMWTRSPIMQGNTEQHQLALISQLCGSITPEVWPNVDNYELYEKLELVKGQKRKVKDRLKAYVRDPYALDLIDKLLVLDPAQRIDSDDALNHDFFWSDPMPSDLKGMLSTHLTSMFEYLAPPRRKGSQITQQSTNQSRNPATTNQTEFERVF
# UniProt Q15418, sequence (whole entry, looked up): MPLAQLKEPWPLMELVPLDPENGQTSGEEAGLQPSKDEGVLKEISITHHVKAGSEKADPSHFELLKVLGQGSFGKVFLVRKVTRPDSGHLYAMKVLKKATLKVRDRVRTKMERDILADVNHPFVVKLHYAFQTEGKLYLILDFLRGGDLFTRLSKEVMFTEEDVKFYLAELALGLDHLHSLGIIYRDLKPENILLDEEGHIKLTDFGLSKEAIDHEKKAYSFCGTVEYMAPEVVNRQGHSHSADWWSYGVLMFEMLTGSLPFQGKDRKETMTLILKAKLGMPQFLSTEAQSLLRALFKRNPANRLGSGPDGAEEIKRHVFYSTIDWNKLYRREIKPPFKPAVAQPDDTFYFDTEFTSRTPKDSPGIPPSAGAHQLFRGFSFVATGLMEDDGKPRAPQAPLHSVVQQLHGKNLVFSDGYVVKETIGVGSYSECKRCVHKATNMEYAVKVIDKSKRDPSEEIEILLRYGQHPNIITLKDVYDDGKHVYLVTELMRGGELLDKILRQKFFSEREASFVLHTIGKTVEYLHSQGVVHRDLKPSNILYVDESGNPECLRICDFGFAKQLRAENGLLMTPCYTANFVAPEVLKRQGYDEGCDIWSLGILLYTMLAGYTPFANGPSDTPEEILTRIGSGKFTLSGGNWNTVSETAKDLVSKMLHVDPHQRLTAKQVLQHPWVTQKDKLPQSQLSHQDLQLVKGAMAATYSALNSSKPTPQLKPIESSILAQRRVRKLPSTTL
# UniProt P00388, sequence (whole entry, unmodified, looked up): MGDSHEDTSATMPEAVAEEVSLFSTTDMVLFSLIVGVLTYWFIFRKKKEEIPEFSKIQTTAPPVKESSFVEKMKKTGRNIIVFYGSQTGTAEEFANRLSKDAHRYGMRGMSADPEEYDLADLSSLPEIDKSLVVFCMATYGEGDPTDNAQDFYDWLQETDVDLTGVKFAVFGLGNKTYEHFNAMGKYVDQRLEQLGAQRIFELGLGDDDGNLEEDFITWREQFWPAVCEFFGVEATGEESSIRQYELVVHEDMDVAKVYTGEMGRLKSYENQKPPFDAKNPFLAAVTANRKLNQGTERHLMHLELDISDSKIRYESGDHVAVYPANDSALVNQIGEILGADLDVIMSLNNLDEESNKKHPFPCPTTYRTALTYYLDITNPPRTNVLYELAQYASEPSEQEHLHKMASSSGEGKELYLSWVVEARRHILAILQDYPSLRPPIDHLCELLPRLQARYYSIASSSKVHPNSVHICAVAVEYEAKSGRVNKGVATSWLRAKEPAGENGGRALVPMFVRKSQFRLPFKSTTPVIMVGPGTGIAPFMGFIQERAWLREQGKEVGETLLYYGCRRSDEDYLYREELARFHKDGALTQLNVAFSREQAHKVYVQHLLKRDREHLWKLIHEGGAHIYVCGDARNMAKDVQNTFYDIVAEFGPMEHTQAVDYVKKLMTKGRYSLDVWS
# UniProt Q70EK9, sequence (whole entry, looked up): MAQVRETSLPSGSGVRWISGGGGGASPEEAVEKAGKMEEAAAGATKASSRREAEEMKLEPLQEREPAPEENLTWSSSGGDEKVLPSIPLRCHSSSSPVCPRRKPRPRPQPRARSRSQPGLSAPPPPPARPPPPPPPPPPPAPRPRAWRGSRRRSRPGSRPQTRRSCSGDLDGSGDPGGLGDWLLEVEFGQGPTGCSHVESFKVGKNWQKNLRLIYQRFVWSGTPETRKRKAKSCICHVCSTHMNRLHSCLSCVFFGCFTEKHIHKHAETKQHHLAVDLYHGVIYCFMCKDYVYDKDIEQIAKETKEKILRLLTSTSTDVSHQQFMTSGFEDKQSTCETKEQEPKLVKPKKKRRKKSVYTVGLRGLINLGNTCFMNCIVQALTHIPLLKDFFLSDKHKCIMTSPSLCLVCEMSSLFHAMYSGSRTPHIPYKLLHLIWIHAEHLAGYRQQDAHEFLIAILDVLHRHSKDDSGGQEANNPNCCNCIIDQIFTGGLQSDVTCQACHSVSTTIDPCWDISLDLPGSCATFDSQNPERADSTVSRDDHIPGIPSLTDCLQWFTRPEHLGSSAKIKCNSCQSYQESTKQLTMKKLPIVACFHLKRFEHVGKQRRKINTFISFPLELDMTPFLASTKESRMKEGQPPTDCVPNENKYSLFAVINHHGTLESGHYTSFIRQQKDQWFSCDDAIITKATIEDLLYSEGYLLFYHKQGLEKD
# UniProt P06239, sequence (whole entry, looked up): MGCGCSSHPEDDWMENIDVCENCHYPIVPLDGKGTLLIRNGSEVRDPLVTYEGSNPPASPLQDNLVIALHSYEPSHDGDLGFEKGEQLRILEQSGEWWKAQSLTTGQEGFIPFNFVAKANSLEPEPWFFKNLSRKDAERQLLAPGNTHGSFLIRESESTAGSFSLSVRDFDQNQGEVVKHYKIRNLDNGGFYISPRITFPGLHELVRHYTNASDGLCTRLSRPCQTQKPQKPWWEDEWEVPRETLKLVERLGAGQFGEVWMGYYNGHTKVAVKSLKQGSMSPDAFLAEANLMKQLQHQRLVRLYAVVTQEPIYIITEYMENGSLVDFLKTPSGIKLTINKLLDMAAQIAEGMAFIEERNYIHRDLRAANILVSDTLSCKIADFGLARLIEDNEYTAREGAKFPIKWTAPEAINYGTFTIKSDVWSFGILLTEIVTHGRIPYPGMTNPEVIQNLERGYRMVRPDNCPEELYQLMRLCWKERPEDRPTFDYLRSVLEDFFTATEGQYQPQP
Structure (SMILES),target,test,system,conditions,endpoint,value
CCc1nc2ccccc2n1C[C@H](O)COc1cc(C)ccc1Cl,GAP50,"binding, surface plasmon resonance",,1:1 binding model,Kd,48.3 µM
NC(=O)c1ccc[n+]([C@@H]2O[C@H](COP(=O)(O)OP(=O)(O)OC[C@H]3O[C@@H](n4cnc5c(N)ncnc54)[C@H](OP(=O)(O)O)[C@@H]3O)[C@@H](O)[C@H]2O)c1,"NADPH--cytochrome P450 reductase (Rattus norvegicus, UniProt P00388, W677A)","cytochrome c reduction, inhibitor",,added: NADPH,Ki,5.1 ± 0.42 µM
CC(C)(C)c1cnc(CSc2cnc(NC(=O)C3CCN(C(=O)CCCCCCN4Cc5cc6c(cc5C4)C(=O)N(C4CCC(=O)NC4=O)C6=O)CC3)s2)o1 (centres unmarked),CDK9,"degrader, Western blot",TC-71,,DC50,0.002 ± 0.0007 µM
CN1CCN(c2ccc(Nc3ncc4cc(C#N)c(=O)n(C5CCCC5)c4n3)cc2)CC1,"LCK (Homo sapiens, UniProt P06239)",,,,IC50,0.0214 µM
CC(C)(C)c1cnc(CSc2cnc(NC(=O)C3CCN(C(=O)CCCCCN4Cc5cc6c(cc5C4)C(=O)N(C4CCC(=O)NC4=O)C6=O)CC3)s2)o1 (centres unmarked),CDK9,"degrader, Western blot",TC-71,,DC50,0.0015 ± 0.0004 µM
C[C@@H](c1cc(Cl)cc(Cl)c1)N(C)c1ncc2c(N)nc(N)nc2n1,GAP50,"binding, surface plasmon resonance",,1:1 binding model,Kd,0.000912 µM
CC[C@@H]1[C@H](F)C(=O)N[C@@H]1COc1nccc2cc(C(N)=O)c(OC)cc12,"RPS6KA1 (Homo sapiens, UniProt Q15418)","ATP-site binding, ActivX kinase profiling",THP-1 cell lysate,RSK1 domain 2 Lys2 probe peptide,IC50,> 5 µM
O=C(O)CC1Oc2ccccc2NC1=O (centres unmarked),"Ubiquitin carboxyl-terminal hydrolase 51, ZnF-UBD domain (USP51, Homo sapiens, UniProt Q70EK9)",,,,Kd,> 1000 µM

# For quick reference, copied from above:
Structure (SMILES),target,test,system,conditions,endpoint,value
CCc1nc2ccccc2n1C[C@H](O)COc1cc(C)ccc1Cl,GAP50,"binding, surface plasmon resonance",,1:1 binding model,Kd,48.3 µM
